Measurements from different studies.
Lines come from different studies, so protocols differ. “And” joins repeats or separate records; there may be more than shown.
Cell line: K562

| SMILES | test | system | conditions | scale | quantity | value |
| --- | --- | --- | --- | --- | --- | --- |
| CC1CCC2C(C)C(OC(=O)CCC(=O)N3CCC(Nc4ccc(S(=O)(=O)NC(=O)c5ccc(N6CCN(CC7=C(c8ccc(Cl)cc8)CC(C)(C)CC7)CC6)cc5Oc5cnc6[nH]ccc6c5)cc4[N+](=O)[O-])CC3)OC3OC4(C)CCC1C32OO4 (centres unmarked) | annexin V/PI flow cytometry, measured: annexin V-/PI- | – | 3.2 µM, 24 h | – | viable cells | 92.1% |
| Cc1[nH][n+]([Pt-2]([Cl])([n+]2[nH]c(C)c(CSC3CCCCC3)c2C)[n+]2[nH]c(C)c(CSC3CCCCC3)c2C)c(C)c1CSC1CCCCC1.[Cl-] | cytotoxicity | – | – | reference: IC50 HEK293 over IC50 K562 | selectivity index | 2.8 |
| Cc1sc2c(c1C)C(c1ccc(NC(=O)c3cc([N+](=O)[O-])ccc3F)cc1)=N[C@@H](CC(=O)OC(C)(C)C)c1nnc(C)n1-2 | cell growth or viability, ATP luminescence | – | 72 h | – | IC50 | 0.012 nM |
| CC(C)(C)C(=O)OCOP(=O)(OCOC(=O)C(C)(C)C)C1CCCN(O)C1=O (centres unmarked) | – | – | – | – | log TGI | > -4 log M |
| CN(C)C(=O)c1cncc(-c2cnc3[nH]cc(-c4cc(OS(=O)(=O)F)ccc4C#N)c3c2)c1 | cell growth or viability, MTT | – | 72 h | – | GI50 | > 1000 nM |
| Cc1cc(Oc2nc(N3CC[C@@H](c4ccncc4)C3)ncc2F)[nH]n1 | cell proliferation | blood cancer | – | – | IC50 | 20400 nM |
| O=C(O)c1ccc(-c2nc(-c3ccccc3Cl)c3sccn23)cc1 | megakaryocyte differentiation, flow cytometry | – | 0.01 mM, 48 h | – | CD61-positive cells | 3.5% and 1.4% |
| CN(C)C(=O)c1cncc(-c2cnc3[nH]cc(-c4cc(OS(=O)(=O)F)ccc4C(F)(F)F)c3c2)c1 | cell growth or viability, MTT | – | 72 h | – | GI50 | > 1000 nM |
